Measured values of several laboratories.
Compare with care: the assays were run in different laboratories. pEC50, pKi: −log10 of the molar value.
gpmI: 2,3-bisphosphoglycerate-independent phosphoglycerate mutase (gpmI, Mycoplasma pneumoniae, UniProt P75167)
Sequence of UniProt P75167 (whole entry, looked up): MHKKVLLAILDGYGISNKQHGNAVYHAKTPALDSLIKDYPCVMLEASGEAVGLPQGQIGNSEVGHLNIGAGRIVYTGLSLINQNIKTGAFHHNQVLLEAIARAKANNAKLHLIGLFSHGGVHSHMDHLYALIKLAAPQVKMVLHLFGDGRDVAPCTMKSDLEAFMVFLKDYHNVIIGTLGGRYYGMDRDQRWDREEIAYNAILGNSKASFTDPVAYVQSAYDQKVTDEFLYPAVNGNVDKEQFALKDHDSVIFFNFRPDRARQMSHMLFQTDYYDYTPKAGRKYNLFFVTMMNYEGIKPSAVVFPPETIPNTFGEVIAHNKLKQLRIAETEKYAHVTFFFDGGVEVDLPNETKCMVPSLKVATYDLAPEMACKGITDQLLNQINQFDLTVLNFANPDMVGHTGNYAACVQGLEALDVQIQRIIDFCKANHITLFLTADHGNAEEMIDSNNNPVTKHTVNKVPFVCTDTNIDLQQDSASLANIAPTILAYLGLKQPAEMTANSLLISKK
2,3-bisphosphoglycerate-independent phosphoglycerate mutase: 2,3-bisphosphoglycerate-independent phosphoglycerate mutase (Wuchereria bancrofti, UniProt B1P0R4)
Substance-P receptor: Substance-P receptor (Cavia porcellus, UniProt P30547)
Sequence of UniProt P30547 (whole entry, looked up): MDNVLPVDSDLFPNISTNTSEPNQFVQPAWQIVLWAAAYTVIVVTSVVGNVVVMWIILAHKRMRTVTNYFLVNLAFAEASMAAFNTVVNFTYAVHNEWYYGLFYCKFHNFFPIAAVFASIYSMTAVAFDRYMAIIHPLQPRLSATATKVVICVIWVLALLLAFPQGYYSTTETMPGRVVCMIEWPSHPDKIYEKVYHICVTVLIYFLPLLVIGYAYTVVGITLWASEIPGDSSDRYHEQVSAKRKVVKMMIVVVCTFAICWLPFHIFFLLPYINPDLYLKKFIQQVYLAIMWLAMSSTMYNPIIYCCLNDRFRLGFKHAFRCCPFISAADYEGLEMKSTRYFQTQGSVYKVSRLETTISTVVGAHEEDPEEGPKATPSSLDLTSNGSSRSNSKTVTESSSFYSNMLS
Sequence of UniProt P33033 (whole entry, looked up): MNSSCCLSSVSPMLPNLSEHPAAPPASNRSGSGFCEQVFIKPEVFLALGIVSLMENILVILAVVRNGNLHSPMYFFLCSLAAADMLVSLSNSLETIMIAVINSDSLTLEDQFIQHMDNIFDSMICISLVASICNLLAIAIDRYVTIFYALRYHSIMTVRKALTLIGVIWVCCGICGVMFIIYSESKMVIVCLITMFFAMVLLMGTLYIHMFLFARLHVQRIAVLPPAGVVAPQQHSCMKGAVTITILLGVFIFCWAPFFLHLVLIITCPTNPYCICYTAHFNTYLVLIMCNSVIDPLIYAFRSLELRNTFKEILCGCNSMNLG
Sequence of UniProt P25084 (whole entry, looked up): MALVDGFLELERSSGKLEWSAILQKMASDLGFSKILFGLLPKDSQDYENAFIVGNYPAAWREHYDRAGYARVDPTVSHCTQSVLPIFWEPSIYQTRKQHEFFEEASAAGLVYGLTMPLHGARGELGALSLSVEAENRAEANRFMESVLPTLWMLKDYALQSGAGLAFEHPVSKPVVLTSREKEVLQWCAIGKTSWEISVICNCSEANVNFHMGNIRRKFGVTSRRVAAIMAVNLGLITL
Sequence of UniProt P29320 (whole entry, looked up): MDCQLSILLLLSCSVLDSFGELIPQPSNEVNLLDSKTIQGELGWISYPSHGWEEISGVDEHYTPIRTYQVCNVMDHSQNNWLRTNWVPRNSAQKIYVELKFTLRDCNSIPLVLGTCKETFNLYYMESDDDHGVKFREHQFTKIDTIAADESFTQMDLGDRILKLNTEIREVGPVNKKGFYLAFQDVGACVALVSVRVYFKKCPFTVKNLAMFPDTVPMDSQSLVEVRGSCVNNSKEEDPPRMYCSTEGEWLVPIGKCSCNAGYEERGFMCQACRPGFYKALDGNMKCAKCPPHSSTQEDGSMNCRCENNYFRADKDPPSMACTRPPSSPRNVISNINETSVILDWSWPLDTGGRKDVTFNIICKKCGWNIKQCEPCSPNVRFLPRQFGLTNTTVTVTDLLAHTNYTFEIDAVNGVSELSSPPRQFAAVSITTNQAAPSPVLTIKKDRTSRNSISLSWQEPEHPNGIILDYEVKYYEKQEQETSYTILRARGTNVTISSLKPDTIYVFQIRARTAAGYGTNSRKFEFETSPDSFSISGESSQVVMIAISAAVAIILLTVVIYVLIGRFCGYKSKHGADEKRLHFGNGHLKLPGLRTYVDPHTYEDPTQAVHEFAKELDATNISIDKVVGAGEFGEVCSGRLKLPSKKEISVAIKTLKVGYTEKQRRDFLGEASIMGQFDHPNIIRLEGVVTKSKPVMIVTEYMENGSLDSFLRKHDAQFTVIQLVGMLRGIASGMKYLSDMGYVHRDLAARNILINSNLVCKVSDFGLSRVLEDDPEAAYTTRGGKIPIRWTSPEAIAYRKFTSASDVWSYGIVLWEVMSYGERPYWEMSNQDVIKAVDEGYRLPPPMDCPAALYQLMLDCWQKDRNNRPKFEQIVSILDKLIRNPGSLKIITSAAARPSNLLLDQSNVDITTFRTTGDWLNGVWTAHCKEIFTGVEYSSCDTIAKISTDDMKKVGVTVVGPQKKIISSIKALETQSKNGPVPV
Sequence of UniProt P41149 (whole entry, looked up): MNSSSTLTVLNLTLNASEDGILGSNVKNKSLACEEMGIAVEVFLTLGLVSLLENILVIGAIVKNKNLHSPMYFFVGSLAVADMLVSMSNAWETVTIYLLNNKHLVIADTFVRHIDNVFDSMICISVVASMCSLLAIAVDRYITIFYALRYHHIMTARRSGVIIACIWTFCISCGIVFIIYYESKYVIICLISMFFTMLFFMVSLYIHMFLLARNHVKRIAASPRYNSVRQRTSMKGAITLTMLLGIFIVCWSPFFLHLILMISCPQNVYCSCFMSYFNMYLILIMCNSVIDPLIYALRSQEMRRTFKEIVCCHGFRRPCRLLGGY

CS(=O)(=O)c1cccc(OCCCC(=O)NC2CC3CC3C2O)c1 (stereo not drawn) — pEC50 (lasR (Pseudomonas aeruginosa, UniProt P25084); reporter gene, agonist; Escherichia coli lasB-lux reporter): < 4.70
Cl.Cl.Cl.Cl.Cl.Cl.Cl.Cl.Cl.Cl.Cl.Cl.NC[C@@H]1O[C@H](O[C@H]2[C@@H](O)[C@H](O[C@@H]3[C@@H](O)[C@H](N)C[C@H](N)[C@H]3O[C@H]3O[C@H](CN)[C@@H](O)[C@H](O)[C@H]3N)O[C@@H]2Cn2cc(-c3ccc(-c4cn(C[C@H]5O[C@@H](O[C@@H]6[C@@H](O)[C@H](N)C[C@H](N)[C@H]6O[C@H]6O[C@H](CN)[C@@H](O)[C@H](O)[C@H]6N)[C@H](O)[C@@H]5O[C@H]5O[C@@H](CN)[C@@H](O)[C@H](O)[C@H]5N)nn4)cc3)nn2)[C@H](N)[C@@H](O)[C@@H]1O — binding constant (HIV-1 TAR RNA; RNA binding, ethidium bromide displacement; pH 6.8, TAR RNA 200 nM per strand, together with: ethidium bromide 5 µM): 1.46e+08 M⁻¹
CC(C)[C@@H]1NC(=O)[C@H](CCCNC(=N)N)NC(=O)[C@H](Cc2ccc(O)cc2)NC(=O)[C@H](CO)NC(=O)[C@H](Cc2ccc(O)cc2)NC(=O)[C@H](CC(N)=O)NC(=O)CNC(=O)[C@H](Cc2ccc(O)cc2)NC(=O)[C@H](Cc2ccccc2)NC(=O)[C@H](CC(=O)O)NC(=O)[C@H](Cc2ccc(O)cc2)NC(=O)[C@H](Cc2ccccc2)NC(=O)[C@H](Cc2ccc(O)cc2)NC(=O)[C@H](Cc2ccc(O)cc2)NC(=O)CSC[C@@H](C(N)=O)NC(=O)[C@@H]2CCCN2C1=O — AC50 (gpmI; biochemical): 17.8 µM
CC(=O)N[C@@H](CCCNC(=N)N)C(=O)N[C@@H](CCCNC(=N)N)C(=O)N[C@@H](C(=O)N1Cc2ccccc2C[C@H]1C(N)=O)[C@@H](c1ccccc1)c1c[nH]c2ccccc12 — pEC50 (Melanocortin receptor 5 (Mus musculus, UniProt P41149); cAMP, agonist, AlphaScreen): 6.46
Cl.Cl.Cl.Cl.Cl.Cl.Cl.Cl.Cl.Cl.Cl.Cl.NC[C@@H]1O[C@H](O[C@H]2[C@@H](O)[C@H](O[C@@H]3[C@@H](O)[C@H](N)C[C@H](N)[C@H]3O[C@H]3O[C@H](CN)[C@@H](O)[C@H](O)[C@H]3N)O[C@@H]2Cn2cc(COCCCCCCCCCCCCOCc3cn(C[C@H]4O[C@@H](O[C@@H]5[C@@H](O)[C@H](N)C[C@H](N)[C@H]5O[C@H]5O[C@H](CN)[C@@H](O)[C@H](O)[C@H]5N)[C@H](O)[C@@H]4O[C@H]4O[C@@H](CN)[C@@H](O)[C@H](O)[C@H]4N)nn3)nn2)[C@H](N)[C@@H](O)[C@@H]1O — binding constant (HIV-1 TAR RNA; RNA binding, ethidium bromide displacement; pH 6.8, TAR RNA 200 nM per strand, together with: ethidium bromide 5 µM): 2.53e+07 M⁻¹
COc1ccc(C[C@H]2C(=O)N[C@@H](CC(N)=O)C(=O)N[C@@H](CC(=O)O)C(=O)N[C@@H](CO)C(=O)NCC(=O)N[C@@H](Cc3c[nH]c4ccccc34)C(=O)N(C)[C@@H](Cc3ccc(O)cc3)C(=O)N[C@@H](CC(N)=O)C(=O)N[C@@H]([C@@H](C)O)C(=O)N(C)[C@@H](Cc3ccccc3)C(=O)N[C@H](C(N)=O)CSCC(=O)N[C@@H](Cc3ccc(O)cc3)C(=O)N2C)cc1 — AC50 (2,3-bisphosphoglycerate-independent phosphoglycerate mutase; biochemical): 45.7 µM
CNC(=O)C1CCN(c2ccccc2NC(=O)c2ccc(-c3cc(O)ccc3C)c(C)n2)CC1 — pKi (EPHA3 (Homo sapiens, UniProt P29320); cell-free assay, TR-FRET): 8.68
CC(=O)N[C@@H](CCCNC(=N)N)C(=O)N[C@@H](CCCNC(=N)N)C(=O)N[C@H](Cc1ccc(I)cc1)C(=O)N[C@@H](C(N)=O)[C@H](c1ccccc1)c1c[nH]c2ccccc12 — pEC50 (Melanocortin receptor 3 (Mus musculus, UniProt P33033); cAMP, agonist, AlphaScreen): 5.24
CCCC[C@H](NC(=O)[C@H](Cc1ccccc1)NC(=O)CNC(=O)[C@@H](C)NC(=O)[C@@H](N)Cc1ccc(O)cc1)C(=O)N1CCC[C@H]1C(=O)N[C@@H](CC(C)C)C(=O)N[C@@H](CO[C@@H]1O[C@H](CO)[C@@H](O)[C@H](O)[C@H]1O)C(=O)N[C@@H](Cc1c[nH]c2ccccc12)C(=O)NCc1cc(C(F)(F)F)cc(C(F)(F)F)c1 — Kb (Substance-P receptor; tissue contraction, antagonist): 0.0084 µM
C[C@@H](O)[C@@H]1NC(=O)[C@H](CC(=O)O)NC(=O)[C@@H]2CCCN2C(=O)[C@H](Cc2ccc(O)cc2)NC(=O)CSC[C@@H](C(N)=O)NC(=O)[C@H](Cc2c[nH]cn2)NC(=O)[C@H](Cc2c[nH]c3ccccc23)NC(=O)[C@H](CCC(=O)O)NC(=O)[C@H](CC(=O)O)NC(=O)[C@H](Cc2ccc(O)cc2)N(C)C(=O)[C@H](Cc2ccc(O)cc2)NC(=O)[C@H](Cc2c[nH]c3ccccc23)NC(=O)[C@H](Cc2c[nH]c3ccccc23)NC(=O)[C@H](CC(N)=O)NC1=O — AC50 (2,3-bisphosphoglycerate-independent phosphoglycerate mutase; biochemical): 1.45 µM
CCCC[C@H](NC(=O)[C@H](Cc1ccccc1)NC(=O)CNC(=O)[C@@H](C)NC(=O)[C@@H](N)Cc1ccc(O)cc1)C(=O)N1CCC[C@H]1C(=O)N[C@@H](CO[C@@H]1O[C@H](CO)[C@@H](O)[C@H](O)[C@H]1O)C(=O)N[C@@H](Cc1c[nH]c2ccccc12)C(=O)NCc1cc(C(F)(F)F)cc(C(F)(F)F)c1 — Kb (Substance-P receptor; tissue contraction, antagonist): 0.0018 µM
COc1ccc(C[C@H]2C(=O)N(C)[C@@H](Cc3ccc(O)cc3)C(=O)N(C)[C@@H](Cc3ccccc3)C(=O)N[C@@H](CC(N)=O)C(=O)NCC(=O)N(C)[C@@H](Cc3ccc(O)cc3)C(=O)N[C@@H](CC(N)=O)C(=O)N[C@@H](Cc3c[nH]cn3)C(=O)N[C@@H](Cc3ccc(O)cc3)C(=O)N[C@@H](Cc3c[nH]c4ccccc34)C(=O)N[C@H](C(N)=O)CSCC(=O)N[C@H](Cc3ccc(O)cc3)C(=O)N[C@@H](CC(=O)O)C(=O)N[C@@H](CO)C(=O)N[C@@H](Cc3ccc(O)cc3)C(=O)N[C@@H](C)C(=O)N2C)cc1 — AC50 (gpmI; biochemical): 1.2 µM
